Assay results gathered from unrelated publications.
Protocols differ between the studies behind these lines. Several values in a cell are separate wells, animals, samples, runs or records. ± marks the error that the study gave.

SMILES	tested on	assay	test system	conditions	endpoint	value
Clc1ccc(N/N=C(\c2ccccc2)c2ccccn2)nc1	OCI-Ly1	–	–	0.1 µM, 120 h	viability	0.82%
Cc1cc(-c2ccc3cc[nH]c(=O)c3c2)ccc1O[C@H]1O[C@H](CO)[C@@H](O)[C@H](O)[C@@H]1O	–	–	Sprague-Dawley rat, male, plasma	intravenous, 3 mg/kg	clearance	426 mL/min/kg and 331 mL/min/kg and 467 mL/min/kg
Cc1cccc(CNC(=O)c2cn(CCNC(=O)c3ccccc3Sc3c([N+](=O)[O-])ncn3C)c3cc4c(cc3c2=O)OC(F)(F)O4)n1	–	–	Sprague-Dawley rat, male, whole blood	intravenous, 5 mg/kg	clearance	1170 ± 103 mL/min/kg
CCCC(CCC)NC(=O)c1ccc2c(c1)OCO2	–	–	Sprague-Dawley rat, male, plasma	intravenous, 1 mg/kg	clearance	30.7 mL/min/kg
N#Cc1ccc(Nc2nc(N)cc(Oc3c(F)cc(-c4ccc(C#N)cc4)cc3F)n2)cc1	–	–	Sprague-Dawley rat, plasma	intravenous, 1 mg/kg	clearance	54.6 ± 6.11 mL/min/kg
COc1cc2c3c(n(CCCN4CCOCC4)c(=O)c2cc1OC)-c1cc2c(cc1C3=O)OCO2	–	–	Fischer 344 rats, male	intravenous bolus, 24 mg/m^2	clearance	56 L/h/m²
CNC(=O)c1cccc(-c2ccc(O[C@H]3O[C@H](CO)[C@@H](O)[C@H](O)[C@@H]3O)c(C)c2)c1	–	–	Sprague-Dawley rat, male, plasma	intravenous, 3 mg/kg	clearance	104 mL/min/kg and 80.8 mL/min/kg and 110 mL/min/kg
CCOCC(=O)N1CCC[C@H](C(=O)NCc2nc(-c3ccc(C)nc3)cs2)C1	–	–	Sprague-Dawley rat, male, plasma	intravenous, 1 mg/kg	clearance	2.6 mL/min/kg
N#C[C@@]12C[C@@H]1[C@@H](n1cnc3c(N[C@@H](C4CCC4)C4CC4)nc(I)nc31)[C@H](O)[C@@H]2O	–	–	Wistar rats male, plasma	oral, 3.0 mg/kg	clearance	475 mL/min/kg
C[C@H]1Oc2cc(cnc2N)-c2c(nn(C)c2C#N)CN(C)C(=O)c2ccc(F)cc21	–	population PK	patients with moderate renal impairment, plasma	oral, 100 mg, mean, single dose	clearance	119 mL/min
CCONC(=O)N1CCC[C@H](C(=O)NCc2nc(-c3ccc(C#N)cc3)cs2)C1	–	–	Sprague-Dawley rat, male, plasma	intravenous, 1 mg/kg	clearance	6.5 mL/min/kg
COc1cc(-c2cc(C(C)=O)n3ccccc23)c(OC)cc1Cn1ccnc1	–	–	Sprague-Dawley rat, male, plasma	oral, 5 mg/kg	clearance	40.2 mL/min/kg
c1ccc2c(Cc3c[nH]c4ccccc34)c[nH]c2c1	OCI-Ly1	–	–	0.1 µM, 120 h	viability	177%
COCC(=O)N1CCC[C@H](C(=O)NCc2nc(-c3ccc(C#N)cc3)cs2)C1	–	–	Sprague-Dawley rat, male, plasma	intravenous, 1 mg/kg	clearance	0.62 mL/min/kg
Cc1ccc(S(=O)(=O)n2cc3c4c2C(=O)C(NCc2ccc(Cl)cc2)=CC4=NCC3)cc1	–	–	Sprague-Dawley rat, plasma	intravenous, 5 mg/kg, two-compartment model	clearance	0.05 mL/min/kg and 0.0333 mL/min/kg
N=C(N)NCCNC(=O)C1(Nc2ccccc2)CCN(Cc2ccccc2)CC1	–	–	Sprague-Dawley rats (female), plasma	oral, 50 mg/kg	clearance	18.3 ± 5 mL/min
